Results collected from several papers.
Parts stem from different laboratories: compare values within a part only.

Block 1
Target: Calcium/calmodulin-dependent protein kinase type II subunit alpha (CAMK2A, Homo sapiens, UniProt Q9UQM7)
UniProt Q9UQM7, sequence (whole entry, looked up): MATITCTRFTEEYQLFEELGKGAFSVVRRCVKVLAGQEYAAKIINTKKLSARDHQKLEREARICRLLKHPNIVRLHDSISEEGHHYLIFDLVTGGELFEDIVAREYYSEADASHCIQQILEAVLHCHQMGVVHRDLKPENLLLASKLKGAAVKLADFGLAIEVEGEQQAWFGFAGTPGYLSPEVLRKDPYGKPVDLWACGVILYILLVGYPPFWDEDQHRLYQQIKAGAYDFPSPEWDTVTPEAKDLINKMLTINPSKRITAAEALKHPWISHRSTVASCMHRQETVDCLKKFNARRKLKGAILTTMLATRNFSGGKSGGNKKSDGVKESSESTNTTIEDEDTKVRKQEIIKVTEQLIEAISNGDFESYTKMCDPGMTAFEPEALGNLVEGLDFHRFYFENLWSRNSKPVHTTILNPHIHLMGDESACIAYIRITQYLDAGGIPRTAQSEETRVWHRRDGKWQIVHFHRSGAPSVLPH
Read-out: enzyme activity
Mode: inhibitor
Tested at: 10 µM
For `C=C[C@H]1[C@H](O[C@@H]2O[C@H](CO)[C@@H](O)[C@H](O)[C@H]2O)OC=C2C(=O)N3CCc4c([nH]c5ccccc45)[C@@H]3C[C@H]21`, the inhibition was -15%.
For `O=C1O[C@H](CO)[C@@H](O)[C@H]1O`, the inhibition was -14%.
`CC[C@@]1([C@@H]2O[C@@H]([C@H]3O[C@@](O)(CO)[C@H](C)C[C@@H]3C)C[C@@H]2C)CC[C@H]([C@]2(C)CC[C@]3(C[C@H](O)[C@@H](C)[C@@H]([C@@H](C)[C@@H](OC)[C@H](C)C(=O)O)O3)O2)O1` has an inhibition of 33%.
`COc1ccc(-c2coc3cc(O)c(OC)c(O)c3c2=O)cc1` gave an inhibition of 25%.
With `Cc1c[nH]c2ccccc12` the inhibition was -49%.
`O=c1cc(O)cc(/C=C/c2ccc(O)c(O)c2)o1` gave an inhibition of -1%.
For `N#C/C=C1/C=C[C@@H](O)[C@H](O)[C@H]1O[C@@H]1O[C@H](CO)[C@@H](O)[C@H](O)[C@H]1O`, the inhibition was 44%.
`CC(C)=CCC[C@](C)(O)[C@H]1CC[C@]2(C)[C@@H]1[C@H](O)C[C@@H]1[C@@]3(C)C[C@@H](O)[C@H](O[C@@H]4O[C@H](CO)[C@@H](O)[C@H](O)[C@H]4O[C@@H]4O[C@H](CO)[C@@H](O)[C@H](O)[C@H]4O)C(C)(C)[C@@H]3CC[C@]12C` gave an inhibition of 30%.
The inhibition of `CCCCCCCCCCCCCCOC(C)=O` is reported as -23%.

Block 2
Target: 5-hydroxytryptamine receptor 2B (HTR2B, Homo sapiens, UniProt P41595)
UniProt P41595, sequence (whole entry, looked up): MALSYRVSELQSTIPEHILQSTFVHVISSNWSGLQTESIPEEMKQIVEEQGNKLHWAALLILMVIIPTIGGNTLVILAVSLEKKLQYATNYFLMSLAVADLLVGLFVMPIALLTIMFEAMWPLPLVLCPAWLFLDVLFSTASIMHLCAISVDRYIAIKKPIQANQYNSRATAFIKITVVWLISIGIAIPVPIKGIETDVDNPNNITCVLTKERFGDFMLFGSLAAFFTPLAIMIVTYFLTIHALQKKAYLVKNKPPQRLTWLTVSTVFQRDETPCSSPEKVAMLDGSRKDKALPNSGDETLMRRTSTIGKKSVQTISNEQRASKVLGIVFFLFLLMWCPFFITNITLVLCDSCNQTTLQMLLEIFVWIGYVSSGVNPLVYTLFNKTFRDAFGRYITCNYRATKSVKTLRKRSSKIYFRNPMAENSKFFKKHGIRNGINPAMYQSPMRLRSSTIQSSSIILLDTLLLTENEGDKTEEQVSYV
Read-out: ligand displacement
Tested at: 10 µM
With `C[C@H](c1ccc(F)cc1)N(Cc1ccc(Cl)c(C(=O)O)c1)C(=O)c1cnc2ccccc2c1` the inhibition was 21.8%.
For `Cc1cc2c(-c3ccco3)cnc(N[C@@H]3CCN(C)C[C@H]3C(=O)NC3CCCCC3)c2[nH]c1=O`, the inhibition was 9.16%.
The inhibition of `CO[C@H]1CC[C@H](CNc2ccc(S(=O)(=O)NC(=O)c3ccc(N4CCN(CC5=C(c6ccc(Cl)cc6)CC(C)(C)CC5)CC4)cc3Oc3cnc4[nH]ccc4c3)cc2[N+](=O)[O-])CC1` is reported as 3.54%.
The inhibition of `CC(=O)N1CCC(c2ccc(C(=O)NC3=NCCN3)cc2C(F)(F)F)CC1` is reported as -2.75%.
`O=C(NNS(=O)(=O)c1ccccc1F)c1cc(F)cc(-c2ccccn2)c1` gave an inhibition of 2.94%.
`Nc1cnc(N2CCc3cc(S(=O)(=O)Nc4c(F)cc(Cl)cc4F)cc(N4CCCC4=O)c32)nc1` gave an inhibition of 12.9%.
`CCC(F)(F)c1cc(N2CCC(S(C)(=O)=O)CC2)nc2sc(C(N)=O)c(N)c12` gave an inhibition of 13.4%.
`CN1CCN(c2ccnc(NCCc3ccccc3)n2)CC1` has an inhibition of 91.7%.
`COc1cc(-c2cn(C3CCc4c(F)cccc4N(CC(F)(F)F)C3=O)nn2)ccc1-n1cnc(C)c1` (centres unmarked) has an inhibition of 5.58%.
`CN1CCN(c2cnc3c(C4CCN(C(=O)c5ccc(OC(F)(F)F)cc5N)CC4)ncnc3c2)CC1` has an inhibition of 3.56%.
`COCCOc1nc(-c2ccc(Cl)nc2)nc2c1CN(C(=O)c1ncn3ccccc13)CC2` has an inhibition of 3.25%.
With `COc1cc(N[C@@H]2CCCC[C@]2(O)C(F)(F)F)ccc1F` the inhibition was 18%.
With `C[C@@]1(Cc2ccc(C#N)cc2)C(=O)N(c2cc(Cl)cc(Cl)c2)c2ncc(C(=O)NC3(c4nc(C5CCC5)no4)CC3)n21` the inhibition was 15.5%.
The inhibition of `CN1CCN(C(=O)C(C)(C)c2ccc(C(=O)Nc3cn4cc(-c5cc(C(C)(C)C)cc(C(C)(C)C)c5)ccc4n3)cc2)CC1` is reported as 44.1%.
`C[C@H](c1cccc(C#N)c1)n1cc(Cl)cc(C(N)=O)c1=N` has an inhibition of 12.3%.

Block 3
Target: DNA polymerase theta, ATPase domain (POLQ, Homo sapiens, UniProt O75417)
UniProt O75417, sequence (whole entry, unmodified, looked up): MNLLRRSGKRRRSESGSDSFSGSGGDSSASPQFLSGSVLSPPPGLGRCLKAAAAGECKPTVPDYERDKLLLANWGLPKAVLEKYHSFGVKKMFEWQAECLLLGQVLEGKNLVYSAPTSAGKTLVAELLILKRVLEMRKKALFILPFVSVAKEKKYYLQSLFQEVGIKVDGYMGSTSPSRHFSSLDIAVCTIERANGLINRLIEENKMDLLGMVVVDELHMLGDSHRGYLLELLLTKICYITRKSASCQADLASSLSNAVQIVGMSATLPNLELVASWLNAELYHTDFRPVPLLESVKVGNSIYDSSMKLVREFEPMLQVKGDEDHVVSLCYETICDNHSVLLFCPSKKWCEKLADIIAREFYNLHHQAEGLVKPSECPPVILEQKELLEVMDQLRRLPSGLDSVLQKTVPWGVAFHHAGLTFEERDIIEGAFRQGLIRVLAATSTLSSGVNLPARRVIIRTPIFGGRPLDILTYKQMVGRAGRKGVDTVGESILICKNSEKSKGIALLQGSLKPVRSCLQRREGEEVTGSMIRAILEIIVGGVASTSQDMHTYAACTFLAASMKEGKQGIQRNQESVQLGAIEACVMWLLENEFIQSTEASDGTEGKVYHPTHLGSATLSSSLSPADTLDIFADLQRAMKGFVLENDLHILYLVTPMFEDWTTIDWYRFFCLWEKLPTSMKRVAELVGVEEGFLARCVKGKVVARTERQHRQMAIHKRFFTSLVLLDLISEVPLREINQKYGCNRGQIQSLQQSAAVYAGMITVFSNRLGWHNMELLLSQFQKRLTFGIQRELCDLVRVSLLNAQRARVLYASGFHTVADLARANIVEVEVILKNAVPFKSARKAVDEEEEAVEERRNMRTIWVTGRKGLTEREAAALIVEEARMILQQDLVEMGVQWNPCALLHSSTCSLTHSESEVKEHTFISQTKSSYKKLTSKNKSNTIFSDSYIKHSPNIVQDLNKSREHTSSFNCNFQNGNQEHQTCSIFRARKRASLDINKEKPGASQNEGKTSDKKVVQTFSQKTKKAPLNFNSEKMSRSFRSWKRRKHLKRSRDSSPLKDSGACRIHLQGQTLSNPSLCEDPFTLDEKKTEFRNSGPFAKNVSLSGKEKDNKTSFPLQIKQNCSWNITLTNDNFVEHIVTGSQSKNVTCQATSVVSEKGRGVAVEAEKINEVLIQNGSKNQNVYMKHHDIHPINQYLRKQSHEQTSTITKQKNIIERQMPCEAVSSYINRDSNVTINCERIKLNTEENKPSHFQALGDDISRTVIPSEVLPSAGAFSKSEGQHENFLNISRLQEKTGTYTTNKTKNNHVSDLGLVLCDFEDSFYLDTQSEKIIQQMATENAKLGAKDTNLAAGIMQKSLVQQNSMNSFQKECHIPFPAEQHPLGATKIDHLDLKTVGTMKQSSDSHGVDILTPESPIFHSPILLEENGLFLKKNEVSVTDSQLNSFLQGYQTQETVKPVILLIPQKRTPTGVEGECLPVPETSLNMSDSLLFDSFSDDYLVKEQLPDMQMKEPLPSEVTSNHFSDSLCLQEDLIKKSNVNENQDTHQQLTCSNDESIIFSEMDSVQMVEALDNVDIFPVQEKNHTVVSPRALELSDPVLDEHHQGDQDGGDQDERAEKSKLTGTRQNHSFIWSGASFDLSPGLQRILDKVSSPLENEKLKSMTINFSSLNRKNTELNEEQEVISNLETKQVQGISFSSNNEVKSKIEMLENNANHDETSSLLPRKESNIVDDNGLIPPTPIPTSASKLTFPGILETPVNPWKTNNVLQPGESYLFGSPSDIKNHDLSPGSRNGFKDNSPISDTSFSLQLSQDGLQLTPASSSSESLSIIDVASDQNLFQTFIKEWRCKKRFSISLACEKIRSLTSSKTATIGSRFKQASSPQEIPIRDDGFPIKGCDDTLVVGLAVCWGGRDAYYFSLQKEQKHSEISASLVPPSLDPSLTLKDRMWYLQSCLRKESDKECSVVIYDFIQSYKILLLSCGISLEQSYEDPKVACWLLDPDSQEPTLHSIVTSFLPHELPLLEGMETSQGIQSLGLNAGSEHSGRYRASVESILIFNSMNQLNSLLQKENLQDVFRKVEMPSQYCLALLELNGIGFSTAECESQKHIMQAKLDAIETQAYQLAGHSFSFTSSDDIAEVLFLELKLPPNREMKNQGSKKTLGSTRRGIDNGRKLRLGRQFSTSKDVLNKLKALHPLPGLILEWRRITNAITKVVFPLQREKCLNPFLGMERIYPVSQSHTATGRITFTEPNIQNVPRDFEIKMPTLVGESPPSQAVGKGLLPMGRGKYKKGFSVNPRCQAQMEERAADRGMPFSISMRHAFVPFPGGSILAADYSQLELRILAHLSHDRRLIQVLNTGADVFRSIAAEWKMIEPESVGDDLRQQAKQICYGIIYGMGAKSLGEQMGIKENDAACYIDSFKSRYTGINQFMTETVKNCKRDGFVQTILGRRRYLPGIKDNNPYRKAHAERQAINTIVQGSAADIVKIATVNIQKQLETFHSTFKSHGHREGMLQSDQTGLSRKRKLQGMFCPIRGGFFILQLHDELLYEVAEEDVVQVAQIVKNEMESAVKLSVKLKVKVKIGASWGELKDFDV
Read-out: enzyme activity
Mode: inhibitor
Tested at: 77 µM
With `Cc1nc2n(c(=O)c1CCN1CCC(c3noc4cc(F)ccc34)CC1)CCCC2` the remaining activity was 96.2%.
For `CC/C(=C(/CC)c1ccc(O)cc1)c1ccc(O)cc1`, the remaining activity was 101%.
`CN(C)C(=N)NC(=N)N` has a remaining activity of 92.6%.
For `C[N+](C)(C)CC=O`, the remaining activity was 97.8%.
`COc1ccc(C[C@@H](C)NC[C@H](O)c2ccc(O)c(NC=O)c2)cc1` (relative stereo) has a remaining activity of 114%.
`CCCC(CCC)C(=O)O[C@H]1C[C@H]2CC[C@@H](C1)[N+]2(C)C` gave a remaining activity of 105%.
`CC(C)(C)NC[C@H](O)c1ccc(O)c(CO)c1` has a remaining activity of 99.8%.
With `CN1CC[C@]23c4ccccc4N[C@H]1[C@]21CCN(C)[C@H]3Nc2ccccc21` the remaining activity was 102%.
For `Nc1nc(N)c2nc(CNc3ccc(C(=O)N[C@@H](CCC(=O)O)C(=O)O)cc3)cnc2n1`, the remaining activity was 99%.
`CC(=O)Nc1nnc(S(N)(=O)=O)s1` gave a remaining activity of 102%.
For `Cc1ccc(O)c([C@H](CCN(C(C)C)C(C)C)c2ccccc2)c1`, the remaining activity was 100%.

Block 4
Target: Protein kinase C delta type (PRKCD, Homo sapiens, UniProt Q05655)
UniProt Q05655, sequence (whole entry, looked up): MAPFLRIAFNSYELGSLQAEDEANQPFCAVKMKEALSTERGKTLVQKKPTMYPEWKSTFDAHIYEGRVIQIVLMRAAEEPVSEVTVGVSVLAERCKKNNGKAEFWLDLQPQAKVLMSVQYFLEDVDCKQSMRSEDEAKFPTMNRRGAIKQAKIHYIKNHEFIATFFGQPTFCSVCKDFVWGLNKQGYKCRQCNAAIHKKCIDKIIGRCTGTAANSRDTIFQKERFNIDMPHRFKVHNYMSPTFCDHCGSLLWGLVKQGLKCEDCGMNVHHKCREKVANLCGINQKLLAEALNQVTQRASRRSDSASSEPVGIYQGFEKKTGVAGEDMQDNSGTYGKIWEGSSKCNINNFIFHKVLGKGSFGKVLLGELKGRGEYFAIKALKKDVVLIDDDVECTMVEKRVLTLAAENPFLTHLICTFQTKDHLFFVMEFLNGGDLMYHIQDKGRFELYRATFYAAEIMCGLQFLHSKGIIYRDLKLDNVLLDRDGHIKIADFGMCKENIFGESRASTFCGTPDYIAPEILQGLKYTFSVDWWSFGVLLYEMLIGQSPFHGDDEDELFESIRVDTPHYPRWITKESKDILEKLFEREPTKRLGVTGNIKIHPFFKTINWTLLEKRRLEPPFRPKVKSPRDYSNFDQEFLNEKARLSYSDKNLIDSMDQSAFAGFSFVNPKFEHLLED
Read-out: enzyme activity
Mode: inhibitor
Tested at: 0.5 µM
Relative to: control
`N#C/C(=C\c1ccc(O)c(O)c1)C(=O)NCc1ccccc1` gave a remaining activity of 91.1%.
For `Cn1nc2c3c(cccc31)C(=O)c1ccccc1-2`, the remaining activity was 92.3%.
With `CCN(CC)C(=O)c1ccc(Nc2nc(OCC3CCCCC3)c3[nH]cnc3n2)cc1` the remaining activity was 76.7%.
`C[C@@H]1CCN(C(=O)CC#N)C[C@@H]1N(C)c1ncnc2[nH]ccc12` has a remaining activity of 75.3%.
The remaining activity of `CN(C)C[C@H]1CCn2c(c(C3=C(c4cn(C)c5ccccc45)C(=O)NC3=O)c3ccccc32)C1` is reported as 8.11%.
With `CCN(CC)CCNC(=O)c1c(C)[nH]c(/C=C2\C(=O)Nc3ccc(F)cc32)c1C` the remaining activity was 95.1%.
`N#Cc1c(NC(=O)c2cccc3ccccc23)sc2c1CCCC2` has a remaining activity of 94.1%.
For `Cc1cn(-c2cc(NC(=O)c3ccc(C)c(Nc4nccc(-c5cccnc5)n4)c3)cc(C(F)(F)F)c2)cn1`, the remaining activity was 100%.
With `COc1cc2c(cc1OC)-c1[nH]nc(Nc3cccc(F)c3)c1C2` the remaining activity was 111%.
For `Cc1nc2cc3nc(-c4cccs4)cnc3cc2n1C`, the remaining activity was 78.6%.
The remaining activity of `c1ccc(-c2cnc(Nc3ccc(OCCN4CCCC4)cc3)s2)cc1` is reported as 91.3%.
For `O=C1C(Cl)=C(N2C(=O)CCC2=O)C(=O)c2ccccc21`, the remaining activity was 97.8%.
For `O=C1c2ccccc2-c2n[nH]c3cccc1c23`, the remaining activity was 94.9%.
The remaining activity of `O=C(Nc1cccc(Nc2nccc(Nc3cccc(C(F)(F)F)c3)n2)c1)C1CC1` is reported as 87.9%.
The remaining activity of `COc1cc2ncnc(Nc3ccc(O)c(Br)c3)c2cc1OC` is reported as 97.3%.
`Cc1cc2ncc(-c3ccccc3)nc2cc1C` gave a remaining activity of 92.3%.
`O=c1cc(-c2cccc3c2Sc2ccccc2S3)oc(N2CCOCC2)c1` gave a remaining activity of 91.9%.
For `CN([C@@H](Cc1ccc(OS(=O)(=O)c2cccc3cnccc23)cc1)C(=O)N1CCN(c2ccccc2)CC1)S(=O)(=O)c1cccc2cnccc12`, the remaining activity was 93%.
For `CCN(CC)CCNC(=O)c1c(C)[nH]c(/C=C2\C(=O)Nc3ccc(Cl)cc32)c1C`, the remaining activity was 90.4%.
For `c1ccc(-c2[nH]ncc2-c2ccnc3ccccc23)nc1`, the remaining activity was 96.6%.
For `COc1cc2ncnc(Nc3cccc(Cl)c3)c2cc1OC`, the remaining activity was 86.4%.
The remaining activity of `O=C(NC(NC(=S)Nc1ccc(F)c([N+](=O)[O-])c1)C(Cl)(Cl)Cl)C(c1ccccc1)c1ccccc1` (centres unmarked) is reported as 91.2%.
`Ic1cccc(CSc2nnc(-c3ccncc3)o2)c1` gave a remaining activity of 83.7%.
With `Nc1cccc(-c2cc3c(Oc4cccc(O)c4)ncnc3[nH]2)c1` the remaining activity was 95.7%.

Repeated from above (block 4):
With `COc1cc2c(cc1OC)-c1[nH]nc(Nc3cccc(F)c3)c1C2` the remaining activity was 111%.
With `CCN(CC)CCNC(=O)c1c(C)[nH]c(/C=C2\C(=O)Nc3ccc(F)cc32)c1C` the remaining activity was 95.1%.
For `Cn1nc2c3c(cccc31)C(=O)c1ccccc1-2`, the remaining activity was 92.3%.
For `O=C1c2ccccc2-c2n[nH]c3cccc1c23`, the remaining activity was 94.9%.
The remaining activity of `O=C(NC(NC(=S)Nc1ccc(F)c([N+](=O)[O-])c1)C(Cl)(Cl)Cl)C(c1ccccc1)c1ccccc1` (centres unmarked) is reported as 91.2%.
`O=c1cc(-c2cccc3c2Sc2ccccc2S3)oc(N2CCOCC2)c1` gave a remaining activity of 91.9%.
For `O=C1C(Cl)=C(N2C(=O)CCC2=O)C(=O)c2ccccc21`, the remaining activity was 97.8%.
For `COc1cc2ncnc(Nc3cccc(Cl)c3)c2cc1OC`, the remaining activity was 86.4%.
